Assay results of several laboratories.
Compare with care: the assays were run in different laboratories.
FGFR3 isoform IIIc: FGFR3 isoform IIIc (unknown, UniProt Q61851)
Chain of UniProt Q61851 (whole entry, looked up): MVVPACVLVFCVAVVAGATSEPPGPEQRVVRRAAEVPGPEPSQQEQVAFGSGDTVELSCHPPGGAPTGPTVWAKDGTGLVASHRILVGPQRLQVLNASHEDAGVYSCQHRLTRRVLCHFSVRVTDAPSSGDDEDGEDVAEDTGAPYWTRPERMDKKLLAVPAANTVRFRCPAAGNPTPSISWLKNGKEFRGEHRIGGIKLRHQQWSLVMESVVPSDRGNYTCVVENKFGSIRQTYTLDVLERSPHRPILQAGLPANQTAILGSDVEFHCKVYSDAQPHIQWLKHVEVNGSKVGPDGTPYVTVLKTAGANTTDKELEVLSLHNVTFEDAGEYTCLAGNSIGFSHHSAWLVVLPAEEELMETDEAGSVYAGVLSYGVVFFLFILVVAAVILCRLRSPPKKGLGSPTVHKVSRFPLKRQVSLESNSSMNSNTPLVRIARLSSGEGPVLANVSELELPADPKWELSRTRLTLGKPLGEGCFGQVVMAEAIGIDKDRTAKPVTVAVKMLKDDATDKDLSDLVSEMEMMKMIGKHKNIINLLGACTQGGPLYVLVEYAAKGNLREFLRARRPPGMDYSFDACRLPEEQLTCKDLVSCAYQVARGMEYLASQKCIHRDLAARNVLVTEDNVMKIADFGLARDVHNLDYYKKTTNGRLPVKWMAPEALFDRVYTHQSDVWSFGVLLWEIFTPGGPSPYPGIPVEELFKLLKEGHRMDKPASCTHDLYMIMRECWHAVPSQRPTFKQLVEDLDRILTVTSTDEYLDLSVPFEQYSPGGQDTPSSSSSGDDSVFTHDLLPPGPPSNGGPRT
T1: HSP90AA1 723-732 C-terminal peptide M to I, N-terminal 5-carboxyfluorescein (Homo sapiens); DDTSRIEEVD
B1: FGF6 (Homo sapiens, UniProt P10767); chain SPAGTRANNTLLDSRGWGTLLSRSRAGLAGEIAGVNWESGYLVGIKRQRRLYCNVGIGFHLQVLPDGRISGTHEENPYSLLEISTVERGVVSLFGVRSALFVAMNSKGRLYATPSFQEECKFRETLLPNNYNAYESDLYQGTYIALSKYGRVKRGSKVSPIMTVTHFLPRI
B2: mel-26 (Caenorhabditis elegans, UniProt Q94420); sequence looked up; chain MEPRIDGGVFIGGIGNSGNEMCSNGVPALGVSSQTEIKVEKVQHTWTVKNFSHCYQEYLENFVYLQRGDEQLTWSIKIYPKGNGENNKDFVFLCLNRVINNNVKAGKIGFKSQFKLRTAENKDIEMRIHPNPSHSDYVSYIKRDVLFPQIMPRDMIIVNVEIDVAVETITTTNEPIQFEPTNSEQQLIEDYQRLFSQELLCDFAINVNGKIIRAHKAVLAARSPVFNAMLTHQDTDEAKSSMMYINDMDYDVIYEMVYYIYCGRCNKDITDMATALLIAADKYRLEELKSHCEKYLVENINIENACSLLIIGDLYSAPKLRKRAVTYILARPKNVTGTPGWEDILKGHPNLITDIFSQIDRQSSTGATSSVSNLPGVPMDIPGITGNIVPPPSGL
B3: ricA (Bacillus subtilis, UniProt O31779); chain MTLYSKKDIVQQARNLAKMISETEEVDFFKRAEAQINENDKVSTIVNQIKALQKQAVNLKHYEKHEALKQVEAKIDALQEELEEIPVIQEFRDSQMEVNDLLQLVAHTISNQVTNEIITSTGGDLLKGETGSKVKHSNNSCSL
B4: GRK1 1-535 (Bos taurus, UniProt P28327); chain MDFGSLETVVANSAFIAARGSFDASSGPASRDRKYLARLKLPPLSKCEALRESLDLGFEGMCLEQPIGKRLFQQFLRTHEQHGPALQLWKDIEDYDTADDALRPQKAQALRAAYLEPQAQLFCSFLDAETVARARAGAGDGLFQPLLRAVLAHLGQAPFQEFLDSLYFLRFLQWKWLEAQPMGEDWFLDFRVLGRGGFGEVFACQMKATGKLYACKKLNKKRLKKRKGYQGAMVEKKILAKVHSRFIVSLAYAFETKTDLCLVMTIMNGGDIRYHIYNVDEDNPGFQEPRAIFYTAQIVSGLEHLHQRNIIYRDLKPENVLLDDDGNVRISDLGLAVELKAGQTKTKGYAGTPGFMAPELLLGEEYDFSVDYFALGVTLYEMIAARGPFRARGEKVENKELKQRVLEQAVTYPDKFSPASKDFCEALLQKDPEKRLGFRDGSCDGLRTHPLFRDISWRQLEAGMLTPPFVPDSRTVYAKNIQDVGAFSTVKGVAFEKADTEFFQEFASGTCPIPWQEEMIETGVFGDLNVWRPDG
B5: TIMP3 24-144 (Homo sapiens, UniProt P35625); sequence looked up; chain CTCSPSHPQDAFCNSDIVIRAKVVGKKLVKEGPFGTLVYTIKQMKMYRGFTKMPHVQYIHTEASESLCGLKLEVNKYQYLLTGRVYDGKMYTGLCNFVERWDQLTLSQRKGLNYRYHLGCN
B6: CTNNB1 T393D (Homo sapiens, UniProt P35222); sequence looked up; chain MATQADLMELDMAMEPDRKAAVSHWQQQSYLDSGIHSGATTTAPSLSGKGNPEEEDVDTSQVLYEWEQGFSQSFTQEQVADIDGQYAMTRAQRVRAAMFPETLDEGMQIPSTQFDAAHPTNVQRLAEPSQMLKHAVVNLINYQDDAELATRAIPELTKLLNDEDQVVVNKAAVMVHQLSKKEASRHAIMRSPQMVSAIVRTMQNTNDVETARCTAGTLHNLSHHREGLLAIFKSGGIPALVKMLGSPVDSVLFYAITTLHNLLLHQEGAKMAVRLAGGLQKMVALLNKTNVKFLAITTDCLQILAYGNQESKLIILASGGPQALVNIMRTYTYEKLLWTTSRVLKVLSVCSSNKPAIVEAGGMQALGLHLTDPSQRLVQNCLWTLRNLSDAADKQEGMEGLLGTLVQLLGSDDINVVTCAAGILSNLTCNNYKNKMMVCQVGGIEALVRTVLRAGDREDITEPAICALRHLTSRHQEAEMAQNAVRLHYGLPVVVKLLHPPSHWPLIKATVGLIRNLALCPANHAPLREQGAIPRLVQLLVRAHQDTQRRTSMGGTQQQFVEGVRMEEIVEGCTGALHILARDVHNRIVIRGLNTIPLFVQLLYSPIENIQRVAAGVLCELAQDKEAAEAIEAEGATAPLTELLHSRNEGVATYAAAVLFRMSEDKPQDYKKRLSVELTSSLFRTEPMAWNETADLGLDIGAQGEPLGYRQDDPSYRSFHSGGYGQDALGMDPMMEHEMGGHHPGADYPVDGLPDLGHAQDLMDGLPPGDSNQLAWFDTDL
B7: BMPR2 (Homo sapiens, UniProt Q13873); sequence looked up; chain SQNQERLCAFKDPYQQDLGIGESRISHENGTILCSKGSTCYGLWEKSKGDINLVKQGCWSHIGDPQECHYEECVVTTTPPSIQNGTYRFCCCSTDLCNVNFTENFPPPDTTPLSPPHSFNRDETIIIALASVSVLAVLIVALCFGYRMLTGDRKQGLHSMNMMEAAASEPSLDLDNLKLLELIGRGRYGAVYKGSLDERPVAVKVFSFANRQNFINEKNIYRVPLMEHDNIARFIVGDERVTADGRMEYLLVMEYYPNGSLCKYLSLHTSDWVSSCRLAHSVTRGLAYLHTELPRGDHYKPAISHRDLNSRNVLVKNDGTCVISDFGLSMRLTGNRLVRPGEEDNAAISEVGTIRYMAPEVLEGAVNLRDCESALKQVDMYALGLIYWEIFMRCTDLFPGESVPEYQMAFQTEVGNHPTFEDMQVLVSREKQRPKFPEAWKENSLAVRSLKETIEDCWDQDAEARLTAQCAEERMAELMMIWERNKSVSPTVNPMSTAMQNERNLSHNRRVPKIGPYPDYSSSSYIEDSIHHTDSIVKNISSEHSMSSTPLTIGEKNRNSINYERQQAQARIPSPETSVTSLSTNTTTTNTTGLTPSTGMTTISEMPYPDETNLHTTNVAQSIGPTPVCLQLTEEDLETNKLDPKEVDKNLKESSDENLMEHSLKQFSGPDPLSSTSSSLLYPLIKLAVEATGQQDFTQTANGQACLIPDVLPTQIYPLPKQQNLPKRPTSLPLNTKNSTKEPRLKFGSKHKSNLKQVETGVAKMNTINAAEPHVVTVTMNGVAGRNHSVNSHAATTQYANGTVLSGQTTNIVTHRAQEMLQNQFIGEDTRLNINSSPDEHEPLLRREQQAGHDEGVLDRLVDRRERPLEGGRTNSNNNNSNPCSEQDVLAQGVPSTAADPGPSKPRRAQRPNSLDLSATNVLDGSSIQIGESTQDGKSGSGEKIKKRVKTPYSLKRWRPSTWVISTESLDCEVNNNGSNRAVHSKSSTAVYLAEGGTATTMVSKDIGMNCL
Chain of UniProt Q9YGY0 (whole entry, looked up): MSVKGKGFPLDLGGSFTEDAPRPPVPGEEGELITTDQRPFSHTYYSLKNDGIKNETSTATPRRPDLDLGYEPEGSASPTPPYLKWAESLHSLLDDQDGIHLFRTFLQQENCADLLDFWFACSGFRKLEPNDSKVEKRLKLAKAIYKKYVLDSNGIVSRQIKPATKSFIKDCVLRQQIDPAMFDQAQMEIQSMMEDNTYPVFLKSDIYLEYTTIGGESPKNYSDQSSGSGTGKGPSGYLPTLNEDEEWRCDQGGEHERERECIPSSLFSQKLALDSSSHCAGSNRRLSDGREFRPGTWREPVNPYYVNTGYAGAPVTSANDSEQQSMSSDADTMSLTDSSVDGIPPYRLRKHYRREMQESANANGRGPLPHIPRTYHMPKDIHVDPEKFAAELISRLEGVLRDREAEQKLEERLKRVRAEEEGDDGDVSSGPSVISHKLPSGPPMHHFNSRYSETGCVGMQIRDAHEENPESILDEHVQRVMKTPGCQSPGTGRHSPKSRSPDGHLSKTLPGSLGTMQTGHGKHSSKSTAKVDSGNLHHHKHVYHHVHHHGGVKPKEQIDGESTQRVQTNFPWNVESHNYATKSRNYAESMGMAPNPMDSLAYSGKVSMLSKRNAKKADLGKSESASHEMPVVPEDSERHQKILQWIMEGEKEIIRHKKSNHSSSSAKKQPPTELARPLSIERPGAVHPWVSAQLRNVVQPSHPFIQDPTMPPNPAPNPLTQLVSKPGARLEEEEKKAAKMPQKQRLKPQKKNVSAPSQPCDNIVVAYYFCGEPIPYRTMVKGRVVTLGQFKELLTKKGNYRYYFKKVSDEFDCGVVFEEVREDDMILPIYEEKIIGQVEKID
Chain of UniProt Q8PTU1 (whole entry, looked up): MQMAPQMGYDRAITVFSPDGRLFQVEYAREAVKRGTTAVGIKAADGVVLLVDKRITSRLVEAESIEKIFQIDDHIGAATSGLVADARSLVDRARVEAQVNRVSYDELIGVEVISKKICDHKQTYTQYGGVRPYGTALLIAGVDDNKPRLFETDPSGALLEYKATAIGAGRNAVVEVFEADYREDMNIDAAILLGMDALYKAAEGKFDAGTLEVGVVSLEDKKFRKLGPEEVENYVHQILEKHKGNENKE
Chain of UniProt P55075 (whole entry, looked up): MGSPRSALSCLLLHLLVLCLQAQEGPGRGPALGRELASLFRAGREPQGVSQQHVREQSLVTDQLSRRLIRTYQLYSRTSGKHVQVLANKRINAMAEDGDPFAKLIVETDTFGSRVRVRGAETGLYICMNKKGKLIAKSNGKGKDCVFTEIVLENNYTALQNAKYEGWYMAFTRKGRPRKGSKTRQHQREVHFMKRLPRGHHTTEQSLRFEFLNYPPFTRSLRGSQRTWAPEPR
Chain of UniProt O75173 (whole entry, unmodified, looked up): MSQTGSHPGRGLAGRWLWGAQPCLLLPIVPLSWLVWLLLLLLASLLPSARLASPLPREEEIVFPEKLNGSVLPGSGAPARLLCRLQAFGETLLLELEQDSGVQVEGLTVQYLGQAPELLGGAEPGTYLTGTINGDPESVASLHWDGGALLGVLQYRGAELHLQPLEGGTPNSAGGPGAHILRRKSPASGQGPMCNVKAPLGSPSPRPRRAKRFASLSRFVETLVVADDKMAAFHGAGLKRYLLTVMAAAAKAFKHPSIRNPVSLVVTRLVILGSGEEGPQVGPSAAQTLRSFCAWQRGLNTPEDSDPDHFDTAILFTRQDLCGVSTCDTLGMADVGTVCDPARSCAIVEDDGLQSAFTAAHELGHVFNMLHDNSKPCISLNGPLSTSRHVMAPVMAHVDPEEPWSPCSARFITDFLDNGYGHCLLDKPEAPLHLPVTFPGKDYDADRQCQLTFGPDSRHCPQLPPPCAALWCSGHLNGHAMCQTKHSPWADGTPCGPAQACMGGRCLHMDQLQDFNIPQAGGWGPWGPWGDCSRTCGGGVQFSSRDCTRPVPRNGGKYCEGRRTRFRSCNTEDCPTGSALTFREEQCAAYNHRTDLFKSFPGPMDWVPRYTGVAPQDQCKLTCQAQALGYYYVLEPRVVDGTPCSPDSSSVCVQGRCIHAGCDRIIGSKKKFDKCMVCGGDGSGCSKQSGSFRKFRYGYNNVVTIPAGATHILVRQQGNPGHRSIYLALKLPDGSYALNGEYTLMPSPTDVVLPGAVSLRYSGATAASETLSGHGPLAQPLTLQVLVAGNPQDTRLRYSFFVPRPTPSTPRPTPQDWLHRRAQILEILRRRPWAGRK
Chain of UniProt Q9UNE7 (whole entry, unmodified, looked up): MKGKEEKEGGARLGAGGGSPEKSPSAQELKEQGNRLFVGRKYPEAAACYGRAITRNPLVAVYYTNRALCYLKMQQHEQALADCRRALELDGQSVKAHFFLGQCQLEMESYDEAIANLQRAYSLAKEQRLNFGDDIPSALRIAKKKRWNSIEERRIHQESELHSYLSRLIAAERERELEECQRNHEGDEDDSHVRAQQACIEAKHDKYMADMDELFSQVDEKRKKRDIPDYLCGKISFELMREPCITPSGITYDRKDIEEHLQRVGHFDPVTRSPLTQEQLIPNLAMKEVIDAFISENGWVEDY
Chain of UniProt O60656 (whole entry, looked up): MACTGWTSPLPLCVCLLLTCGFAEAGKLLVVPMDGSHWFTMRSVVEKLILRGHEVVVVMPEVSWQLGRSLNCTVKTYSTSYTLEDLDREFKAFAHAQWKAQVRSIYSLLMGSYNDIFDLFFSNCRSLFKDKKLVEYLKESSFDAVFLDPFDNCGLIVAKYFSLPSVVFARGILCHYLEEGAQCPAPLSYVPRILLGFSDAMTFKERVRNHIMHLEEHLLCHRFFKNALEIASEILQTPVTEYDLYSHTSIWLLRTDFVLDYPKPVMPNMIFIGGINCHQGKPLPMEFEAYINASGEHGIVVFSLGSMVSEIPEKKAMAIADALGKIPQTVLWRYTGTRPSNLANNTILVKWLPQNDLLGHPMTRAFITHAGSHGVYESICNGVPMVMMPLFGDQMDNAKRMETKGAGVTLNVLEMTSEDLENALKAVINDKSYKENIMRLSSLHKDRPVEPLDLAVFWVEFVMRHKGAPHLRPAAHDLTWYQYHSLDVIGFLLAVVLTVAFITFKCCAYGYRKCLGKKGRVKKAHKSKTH
Chain of UniProt P06535 (whole entry, looked up): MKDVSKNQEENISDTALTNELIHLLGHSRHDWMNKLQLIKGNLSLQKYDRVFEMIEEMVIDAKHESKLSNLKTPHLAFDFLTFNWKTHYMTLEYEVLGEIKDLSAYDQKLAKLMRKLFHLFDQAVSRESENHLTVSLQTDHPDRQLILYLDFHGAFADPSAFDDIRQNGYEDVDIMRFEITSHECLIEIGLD
Chain of UniProt P0A6A8 (whole entry, looked up): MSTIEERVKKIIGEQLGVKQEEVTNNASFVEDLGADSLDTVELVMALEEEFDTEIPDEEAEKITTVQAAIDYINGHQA
Chain of UniProt P15923 (whole entry, looked up): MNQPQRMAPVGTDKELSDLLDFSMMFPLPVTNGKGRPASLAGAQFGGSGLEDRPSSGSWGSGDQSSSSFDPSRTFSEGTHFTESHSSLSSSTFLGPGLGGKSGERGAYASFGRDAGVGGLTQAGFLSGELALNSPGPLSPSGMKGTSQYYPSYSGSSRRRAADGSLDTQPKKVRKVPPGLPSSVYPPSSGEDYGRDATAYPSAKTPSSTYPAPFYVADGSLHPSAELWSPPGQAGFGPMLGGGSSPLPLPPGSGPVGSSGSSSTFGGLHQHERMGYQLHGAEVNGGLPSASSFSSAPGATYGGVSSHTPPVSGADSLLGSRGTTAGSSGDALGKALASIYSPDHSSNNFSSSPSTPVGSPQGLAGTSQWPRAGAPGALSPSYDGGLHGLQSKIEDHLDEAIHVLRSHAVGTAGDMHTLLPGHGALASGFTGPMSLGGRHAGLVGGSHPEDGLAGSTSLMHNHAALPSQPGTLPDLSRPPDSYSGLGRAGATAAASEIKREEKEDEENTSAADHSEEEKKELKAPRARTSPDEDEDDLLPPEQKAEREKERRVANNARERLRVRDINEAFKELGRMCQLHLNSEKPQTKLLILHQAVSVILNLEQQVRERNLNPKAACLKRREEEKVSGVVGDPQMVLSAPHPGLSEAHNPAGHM
Chain of UniProt Q12798 (whole entry, looked up): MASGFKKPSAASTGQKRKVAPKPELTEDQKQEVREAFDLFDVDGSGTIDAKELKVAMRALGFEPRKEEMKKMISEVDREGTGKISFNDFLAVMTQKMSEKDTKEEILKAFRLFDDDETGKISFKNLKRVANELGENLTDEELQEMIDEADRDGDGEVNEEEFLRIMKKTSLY

`EIWIAQELRXIGDXFNAYYA (BIM BH3 stapled peptide 145-164; N-terminal FITC-βAla, hydrocarbon staple S5 positions 10/14, C-terminal amide)` has an EC75 of 200 nM (BFL-1 ΔC (Homo sapiens); fluorescence polarisation; peptide; 20 min, added: FITC-BIM SAHBA2 50 nM).
The reporter activity of `RANBP17 (Homo sapiens, UniProt Q9H2T7)` is reported as 2.7 fold (TCF3 (Homo sapiens, UniProt P15923); luciferase reporter; HeLa; baseline: E12/MyoD alone, higher = more activity).
`NrdA-a/NrdA-b (Aeh1 phage)` gave a specific activity of 946 U/mg (NrdB small subunit, wild type (phage Aeh1); CDP reduction to dCDP; added: NrdB, DTT).
`MENVKKATATTWMVPTAQ (L3MBTL3 52-70 del62 (Homo sapiens, UniProt Q96JM7-2); sequence looked up)` gave a ΔH of -12.7 kcal/mol (Rbpj 53-474 (Mus musculus, UniProt P31266); ITC; peptide; pH 6.5, 25 °C, NaCl 150 mM).
For `YAERPSRDHLYLPLEP (NFATC3 D-site peptide (Homo sapiens))`, the IC50 was > 100000 nM (Mapk14, pT180, pY182 (Rattus norvegicus, UniProt P70618); kinase activity, inhibitor, competitive kinase inhibition assay; peptide; added: ATP 1 mM).
With `B1 (FGF6)` the cell proliferation was 17% (FGFR3 isoform IIIc; cell proliferation, MTT; BaF3-FGFR3c; 20 nM, 48 h, added: heparan sulfate 4.9 µg/mL; baseline: FGF 1 with heparin, higher = more proliferation).
For `B2 (mel-26)`, binding read “binds” (mei-1/mei-2, pS92 (Caenorhabditis elegans); dot blot; 4 °C, native).
`B3 (ricA)`: “β-galactosidase activity ratio” 11 ratio (spo0B (Bacillus subtilis, UniProt P06535); bacterial two-hybrid; E. coli BTH101; 16 hrs, 30 °C; baseline: T18–T25 negative control, higher = stronger interaction).
The condensation rate of `fabF R68A (Escherichia coli)` is reported as 1.2 min⁻¹ (acpP C12-acylated 1-78, C12 acyl on 4'-phosphopantetheine (Escherichia coli, UniProt P0A6A8); holo-AcpP formation, HPLC; 10 µM, added: malonyl-CoA).
With `MYO2 (Saccharomyces cerevisiae, UniProt P19524)` the run length was 0.53 µm (ACT1/TPM1 filaments (Saccharomyces cerevisiae/Gallus gallus); single-molecule TIRF motility; 0.2 nM, pH 7.4, 22 °C, added: tropomyosin 1 µM; higher = longer runs).
`Ac-SQHNRQLLRGALRRWK-NH2 (SFI1 repeat 18, 677-692 (Homo sapiens); N-acetyl; C-terminal amide)` — result for “molecule per partner”: 0.57 (CETN1, phosphothreonine (Homo sapiens, UniProt Q12798); ITC; peptide).
With `UGT1A9 (Homo sapiens, UniProt O60656)` the Vmax was 4.04e-05 µmol/min/mg (COc1cc(/C=C/c2ccc(O)cc2)cc(OC)c1; steady-state kinetics; pH 7.4, 37 °C).
`B4 (GRK1 1-535)`: “decrease in transducin fluorescence” 50% (RHO (Bos taurus, UniProt P02699); transducin activation by Rho*, inhibitor; higher = less activation).
`B5 (TIMP3 24-144)` gave a Ki of 0.18 nM (ADAMTS4 213-685 (Homo sapiens, UniProt O75173); inhibitor, steady-state kinetics; 1 h, pH 7.5, 37 °C).
`CDC48-B C-terminal 7 residues (Methanosarcina mazei)` gave a peptide hydrolysis of 1.5 fold (20S proteasome core particle (Methanosarcina mazei, UniProt Q8PTU1); LFP hydrolysis, activator; 0.6 nM CP, 37 °C; baseline: MmCP alone, higher = more hydrolysis).
Under “phosphorylated to total β-catenin ratio”, `B6 (CTNNB1 T393D)` is recorded as 0.45 ratio (Axin (Xenopus, UniProt Q9YGY0); immunoblot; C57MG; higher = more phosphorylation).
`TIMP2 N-terminal domain S4P/I35V/S68N/V71I/H97R` has a Ki of 3.53 nM (MMP2 (Homo sapiens, UniProt P08253); fluorogenic substrate cleavage, inhibitor, enzyme inhibition assay; apparent).
Under “relative kinase activity”, `B7 (BMPR2)` is recorded as 0.45 (LIMK1 (Homo sapiens, UniProt P53667); GST-cofilin phosphorylation; baseline: LIMK1 alone, higher = more phosphorylation).
The cell proliferation of `FGF8 (Homo sapiens, UniProt P55075)` is reported as 47% (FGFR3 isoform IIIc; cell proliferation, MTT; BaF3-FGFR3c; 20 nM, 48 h, added: chondroitin sulfate E 4.9 µg/mL; baseline: FGF 1 with heparin, higher = more proliferation).
The EC50 of `NPY mature (Homo sapiens, UniProt P01303)` is reported as 404 nM (Npy1r (Rattus norvegicus, UniProt P21555); membrane hyperpolarisation, agonist, whole-cell current clamp; BLA pyramidal neurons, rat brain slices).
The cell proliferation of `FGF8b (Homo sapiens)` is reported as 32% (FGFR3 isoform IIIc; cell proliferation, MTT; BaF3-FGFR3c; 20 nM, 48 h, added: chondroitin sulfate C 4.9 µg/mL; baseline: FGF 1 with heparin, higher = more proliferation).
With `H3K4me3 peptide, K4me3` the kcat was 0.0627 s⁻¹ (Rag2 (Mus musculus, UniProt P21784); 12-RSS nicking, steady-state kinetics; added: H3K4me3 4 µM).
Under “apparent solubilization constant”, `cpSRP43 mature full length (Arabidopsis thaliana, UniProt O22265)` is recorded as 0.15 µM (GUN4 mature (UniProt Q9LX31); suppression of heat-induced aggregation, light scattering; 5 µM, 5 min, 44 °C, apparent).
The affinity change of `STUB1 (Homo sapiens, UniProt Q9UNE7)` is reported as > 2 fold (T1, HSP90AA1 723-732 C-terminal peptide M to I, N-terminal 5-carboxyfluorescein (Homo sapiens); fluorescence polarisation; DnaJC7, mutant tracer, added: 5-Fam peptide tracer 20 nM; baseline: wt Hsp90α tracer, higher = stronger binding).
The relative kon of `LVQKYCELHPLKPGCG (designed peptide; N-terminal bipyridyl thioether macrocycle, C-terminal amide)` is reported as 10 fold (BRD4 fragment (Homo sapiens); SPR; peptide; baseline: L1G, higher = faster association).

A few entries again:
The cell proliferation of `FGF8 (Homo sapiens, UniProt P55075)` is reported as 47% (FGFR3 isoform IIIc; cell proliferation, MTT; BaF3-FGFR3c; 20 nM, 48 h, added: chondroitin sulfate E 4.9 µg/mL; baseline: FGF 1 with heparin, higher = more proliferation).
The EC50 of `NPY mature (Homo sapiens, UniProt P01303)` is reported as 404 nM (Npy1r (Rattus norvegicus, UniProt P21555); membrane hyperpolarisation, agonist, whole-cell current clamp; BLA pyramidal neurons, rat brain slices).
The cell proliferation of `FGF8b (Homo sapiens)` is reported as 32% (FGFR3 isoform IIIc; cell proliferation, MTT; BaF3-FGFR3c; 20 nM, 48 h, added: chondroitin sulfate C 4.9 µg/mL; baseline: FGF 1 with heparin, higher = more proliferation).
With `H3K4me3 peptide, K4me3` the kcat was 0.0627 s⁻¹ (Rag2 (Mus musculus, UniProt P21784); 12-RSS nicking, steady-state kinetics; added: H3K4me3 4 µM).
